Published values from different studies.
Protocols differ between the studies behind these lines. Values joined by “and” are separate records of one study, mostly repeats; a detail may differ. ± marks the error that the study gave.

CC(=O)NCCOCCOCCOCCn1cc(CNC(=O)c2cc(O[C@H]3O[C@H](CO)[C@H](O)[C@H](O)[C@H]3O)cc([N+](=O)[O-])c2)nn1
Hill slope (ctxB (Vibrio cholerae, UniProt P01556); binding): -1.2

CC(C)C[C@@H]1NC(=O)[C@H](CCCNC(=N)N)NC(=O)[C@@H]2CCCN2C(=O)[C@@H]2CSSC[C@H](NC(=O)CNC(=O)[C@@H]3CCCN3C(=O)[C@H](CCCCN)NC(=O)[C@H](CC(=O)O)NC(=O)[C@@H](NC(=O)CN)C(C)C)C(=O)N[C@@H](CCCNC(=N)N)C(=O)N[C@@H](Cc3ccc(O)cc3)C(=O)N[C@@H](CC(C)C)C(=O)N[C@@H](Cc3ccccc3)C(=O)NCC(=O)NCC(=O)N[C@H]3CSSC[C@H](NC(=O)CNC1=O)C(=O)N[C@@H](CCCCN)C(=O)NCC(=O)N[C@@H](CCCCN)C(=O)NCC(=O)N[C@@H](Cc1c[nH]cn1)C(=O)N[C@@H](CC(=O)O)C(=O)N[C@@H](Cc1ccc(O)cc1)C(=O)N[C@H](C(=O)N[C@@H](C)C(=O)N[C@@H](Cc1c[nH]c4ccccc14)C(=O)N[C@@H](CC(=O)O)C(=O)NCC(=O)N[C@H](C(=O)N[C@@H](Cc1ccccc1)C(=O)N[C@@H](CO)C(=O)N[C@@H](CC(=O)O)C(=O)O)[C@@H](C)O)CSSC[C@H](NC(=O)[C@H](CC(=O)O)NC(=O)[C@H](CC(=O)O)NC(=O)[C@H](CC(=O)O)NC(=O)[C@H](CO)NC(=O)[C@H](CCCCN)NC3=O)C(=O)N2
activation V0.5 (Sodium channel protein type 9 subunit alpha (SCN9A, Homo sapiens, UniProt Q15858); manual patch clamp; HEK293; 1 µM): -10.6 ± 1.7 mV

CC(C)C[C@H](NC(=O)CNC(=O)[C@H](Cc1ccccc1)NC(=O)[C@@H](NC(=O)[C@@H](NC(=O)c1cccc(S(=O)(=O)F)c1)[C@@H](C)O)C(C)C)C(=O)N[C@@H](CC(N)=O)C(=O)N[C@H](C(=O)N[C@@H](Cc1c[nH]c2ccccc12)C(=O)N[C@@H](CCCCN)C(=O)N[C@@H](CCCNC(=N)N)C(=O)N[C@@H](Cc1ccc(O)cc1)C(=O)N[C@@H](CO)C(=O)N[C@@H](CCCCN)C(=O)NCC(=O)N[C@@H](CCCCNc1ccc([N+](=O)[O-])cc1[N+](=O)[O-])C(N)=O)C(C)C
koff (Spike glycoprotein, RBD (Severe acute respiratory syndrome coronavirus 2, UniProt P0DTC2); binding): 0.00492 to 0.00514 s⁻¹

CC(=O)N[C@@H](Cc1cn(CCO[C@@H]2O[C@H](CO)[C@H](O)[C@H](O)[C@H]2O)nn1)C(=O)NCC(=O)N[C@@H](C)C(=O)N[C@@H](CCC(=O)O)C(=O)N[C@@H](C)C(=O)N[C@@H](CCC(=O)O)C(=O)N1CCC[C@H]1C(=O)N[C@@H](CCC(=O)O)C(=O)NCC(=O)N[C@@H](C)C(=O)N[C@@H](CCC(=O)O)C(=O)N[C@@H](C)C(=O)N[C@@H](CCC(=O)O)C(=O)N1CCC[C@H]1C(=O)N[C@@H](CCC(=O)O)C(=O)NCC(=O)N[C@@H](C)C(=O)N[C@@H](CCC(=O)O)C(=O)N[C@@H](C)C(=O)N[C@@H](CCC(=O)O)C(=O)N1CCC[C@H]1C(=O)N[C@@H](CCC(=O)O)C(=O)NCC(=O)N[C@@H](C)C(=O)N[C@@H](CCC(=O)O)C(=O)N[C@@H](C)C(=O)N[C@@H](CCC(=O)O)C(=O)N1CCC[C@H]1C(=O)N[C@@H](CCC(=O)O)C(=O)NCC(=O)N[C@@H](C)C(=O)N[C@@H](CCC(=O)O)C(=O)N[C@@H](C)C(=O)N[C@@H](CCC(=O)O)C(=O)N1CCC[C@H]1C(=O)N[C@@H](Cc1cn(CCO[C@@H]2O[C@H](CO)[C@H](O)[C@H](O)[C@H]2O)nn1)C(=O)NCC(=O)NCC(=O)NCC(=O)NCC(N)=O
inhibition potency (ctxB, pentamer (Vibrio cholerae, UniProt P01556); concentration not given; relative to: galactose): 45 fold

Cc1ccc(N)cc1C(=O)N[C@H](C)c1ccc2c3c(cccc13)CC2
thermal shift (ΔTm) (Replicase polyprotein 1a, papain-like protease (Severe acute respiratory syndrome coronavirus 2, UniProt P0DTC1); binding; 10 µM): 3 °C and 4.2 °C and 3.2 °C

CC[C@H](C)[C@@H]1NC(=O)[C@H](CCCNC(=N)N)NC(=O)[C@H](CO)NC(=O)[C@H](CCC(=O)O)NC(=O)[C@H](CC(=O)O)NC(=O)CNC(=O)CNC(=O)[C@H]([C@@H](C)O)NC(=O)[C@H](Cc2ccccc2)NC(=O)[C@H](CO)NC(=O)[C@H]([C@@H](C)O)NC(=O)[C@H](C)NC(=O)[C@@H]2CSSC[C@@H](C(=O)N[C@@H](Cc3ccc(O)cc3)C(=O)N[C@@H](Cc3ccccc3)C(=O)N[C@H](C(=O)N[C@H](C(=O)NCC(=O)O)[C@@H](C)O)[C@@H](C)O)NC(=O)[C@H]([C@@H](C)O)NC(=O)[C@H](CSSC[C@H](NC(=O)[C@H](CCC(=O)O)NC(=O)[C@H](CO)NC(=O)[C@H](CCCCN)NC(=O)[C@H](Cc3ccc(O)cc3)NC(=O)[C@@H]3CCCN3C(=O)[C@H](Cc3ccccc3)NC(=O)[C@H](CCCCN)NC(=O)[C@H](CCCNC(=N)N)NC(=O)[C@H](CCCCN)NC(=O)[C@H](CCCCN)NC(=O)[C@H](Cc3ccc(O)cc3)NC(=O)[C@@H]3CCCN3C(=O)[C@@H](NC(=O)[C@H](CC(=O)O)NC(=O)[C@H](CCCCN)NC(=O)[C@H](CCCCN)NC(=O)[C@@H](NC(=O)[C@@H](NC(=O)[C@@H](N)CCC(=O)O)C(C)C)[C@@H](C)CC)[C@@H](C)O)C(=O)N[C@@H](CC(C)C)C(=O)N[C@@H](CCCCN)C(=O)N[C@@H](C)C(=O)N2)NC(=O)[C@H](CCCCN)NC(=O)[C@H](Cc2ccccc2)NC(=O)[C@H](Cc2ccccc2)NC(=O)CNC(=O)[C@@H]2CCCN2C(=O)[C@H](CCCCN)NC(=O)CNC(=O)[C@H](CCC(=O)O)NC(=O)[C@H](CCC(N)=O)NC1=O
loss of inhibition (Potassium voltage-gated channel subfamily KQT member 4 (KCNQ4, Homo sapiens, UniProt P56696, D266G); potassium current, whole-cell patch clamp; 10 µM; relative to: wild type): ~99%

CS(=O)(=O)NCC1CCOC2(CCN(C(=O)C3(c4ccccc4)CCCCC3)CC2)C1 (centres unmarked)
nsP2 ATPase inhibition (Polyprotein P1234, nsP2 (Chikungunya virus, UniProt Q8JUX6); nsP2 ATPase activity, inhibitor, ADP-Glo; high micromolar): active

COc1ccc(/C=N/NC(=O)C(C)(C)Oc2ccc(Cl)cc2)c(C(=O)O)c1OC
phosphatase activity (uncharacterized protein (Candidatus Liberibacter solanacearum, UniProt A0A094YYW1); inhibitor; concentration not given, outcome inhibited; relative to: mock): inhibited
